Measurements collected from several papers.
A part holds a random share of what one study measured. Substitutions count along the parent as printed.

Set 1 — target: CCNA2, cyclin fold, Cln2 fusion (human); method: yeast growth competition, sequencing; sample: yeast; notes: strong parent motif; relative to: not given; direction: higher = stronger binding; quantity: normalised enrichment score
Parent: CCP110 docking peptide (human); EKVKRRLDLDIDG
EKVKRRADLDIDG [L7A]: -0.46
EKVKRRLDADIDG [L9A]: 0.31
EKVKRRLDLDIAG [D12A]: 3.95
EKVARRLDLDIDG [K4A]: 3.03
EKAKRRLDLDIDG [V3A]: 3.11
EKVKRRLDLDADG [I11A]: 3.95
EKVKARADLDIDG [R5A L7A]: -0.189
EKVKKRLDFDIDG [R5K L9F]: 6.14
EAVKRRLDLDIDG [K2A]: 2.7
EKVKKRLDLDIDG [R5K]: 2.44

Set 2 — method: RNA Bind-n-Seq; form: RNA; sample: in vitro; concentration: 365 nM; relative to: no-protein control; direction: higher = stronger binding; quantity: RBNS enrichment (R)
Target: RNA binding protein fox-1 homolog 2, RRM domain, GST-SBP tag (RBFOX2, Homo sapiens, UniProt O43251-10, residues 100-194)
Notes: natural RNA segment, single round, ends assumed
Shared flanks, not repeated: GGGAGUUCUACAGUCCGACGAUC … UGGAAUUCUCGGGUGCCAA
Target sequence (chain): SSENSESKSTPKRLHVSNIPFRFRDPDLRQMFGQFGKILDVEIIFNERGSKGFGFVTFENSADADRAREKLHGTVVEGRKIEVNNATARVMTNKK
AGUUGAAAUGAUGUUUAUUGUAGAUGGUAUUUGAACUUAUUCUUCUGGAAAUAGUUCAUCAAGUAUGUUUGUUGCUCAUUGUGAUACAUUAAAAACUGUAUCUACAUAUU: 1
GGUGGCAUUGGUUAGGAAUGGGACACACGCCCCUUGUUGUGAAGUUUACAUGUGACCUUCUUAUAGGUUAACUGAGUUUGUGGCCUGGGACACAUGUAAUGAAGGUCACA: 1.04
UGCCUGAAGAGGCCAUAUGCUGGCAUUUUGCACAACUUUUUGGUUGUUUAGAUCCUACAGAUGACCUCUGCUACAAUAAGUACGAUGUGACUUAGUAACUGCAUAGCAGU: 0.284
CGGUCAGAUGGCCAUUUAUCAGCAUAUUUAUUUGUAUUUUCUCAGCAGAUAGUAAGGUACAACUGUGUUUUCUCAAUUGUCUCGAAGAACCAGAGUUCUUAAGUGGCCCA: 0.594
CAUACAAGGCCCAGGAGGCUUAGUCCAGUCUGUGCUCCUGGGCUACAAGGACCCAGCCUGAGAUGGUCCCAUCUGCAGGGCCCCGCACCAGUUGGAGCAGAUGCCUCCCC: 0.322
AAAUCCAUUCAUACUAGUGGACAUCAUUUCUAAGUUUCCUUGCUACUGUUACACCCUUUGAACGGAUGCUUUAGCUCUGAUGUCGUCACAGAGCCUUGGUUUAUCCUGUA: 0.692
ACCCGUCACAAUAAACCAUUCUCAAGUUAUCUAUGUGUGUGUGUAUAUAUAUCUCAGGUUUUUAGACUGGUUGACAGAACAAAGCCUGUUUUAACAGUGGAACCUUAAAG: 0.347
UGUUGCAGCUUUACGGUUUUUAAACUAUUUUAGAUAUUCUUAAACUAUGAACCUUCUAAACAGUACCAACACUGUCAUGUGACUAAUGCUGCCUCUAGACCUCGCCCACG: 0.246
UCAAAGGAGUUUGUGAAAAAAAAUCCAUGGUGAAAAUGAAACAAUGACAUGGUUAAUCUGGAACUUACGUUCUUAUACCAAUAAAAGGUACCUCAAUACAUGUUCUUUCA: 0.633
GGCGGCAGCAGUUUCAGCGUGCAGUUCCCAAACCCCAAAGCUGACCCUGCGCCCCAUUUGAAUACGGCCAGAGCCUGCUGGUUCACUUUGGGUAGAGCCGUGCCUCUUGG: 0.444
AAUGUUAUUGGUGUCUUCACUGGAUAUGUUUGACUGCUGUGGACUUGUGUUGGGAGGAGGAUGUCCUCACUCGGAUGCCGACACGGGAGACAAUGGGAUGAAAGGCUUCA: 0.447
GAGCUUCAGGCAGCAGUGUUUAUCUCUGGCCAGUUGUCUGGUUUCCAUGUAUUCUAGGCCAGGUAGGCAACACAGAGCCAAGGCGGGUGCUGGAAGCCAGACGGAACAGU: 0.34

Set 3 — method: universal PBM; form: double-stranded DNA, one strand shown; sample: in vitro; concentration: not given; direction: higher = stronger binding; quantity: E-score
Target: Sal-like protein 4, full length isoform B (SALL4, Homo sapiens, UniProt Q9UJQ4-2, residues 1-616)
Notes: 8-mer, flanks averaged, mean of replicates
Residues (chain): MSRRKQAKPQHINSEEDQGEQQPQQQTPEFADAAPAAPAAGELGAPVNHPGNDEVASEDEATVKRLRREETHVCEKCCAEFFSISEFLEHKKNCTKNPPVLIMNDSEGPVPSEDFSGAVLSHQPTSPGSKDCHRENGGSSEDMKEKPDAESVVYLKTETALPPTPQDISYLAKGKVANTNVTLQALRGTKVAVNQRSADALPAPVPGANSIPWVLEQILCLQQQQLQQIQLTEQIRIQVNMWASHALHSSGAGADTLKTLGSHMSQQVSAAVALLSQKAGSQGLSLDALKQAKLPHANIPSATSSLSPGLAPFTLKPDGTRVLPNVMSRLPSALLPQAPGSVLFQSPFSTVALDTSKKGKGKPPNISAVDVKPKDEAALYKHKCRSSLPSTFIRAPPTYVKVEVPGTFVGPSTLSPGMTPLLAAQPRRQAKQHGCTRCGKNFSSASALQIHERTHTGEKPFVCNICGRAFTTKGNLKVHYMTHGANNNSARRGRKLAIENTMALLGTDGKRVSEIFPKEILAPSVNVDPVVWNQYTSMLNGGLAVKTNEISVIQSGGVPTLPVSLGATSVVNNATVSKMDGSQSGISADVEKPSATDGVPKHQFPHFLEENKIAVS
ACCATGCG: -0.157
CAGTGACG: -0.108
CGGCGGCA: -0.404
ATCGGCTG: -0.154
GTCATTGA: 0.197
CCCATAAA: 0.142
CTTAACTA: 0.161
ACTCATCC: -0.011
CAAACGTC: -0.0504
CCACCGCA: -0.201
AGACTGCC: -0.11
TACAACGA: 0.167
ATCAGCAG: -0.0437
ATGCGTAC: 0.208
AAGCCGAG: -0.29
ACTACGCG: -0.117
AGGAAGAC: -0.129
CAGGACTA: -0.084
CTAGCGTA: -0.0147
GGGCTATA: -0.00342
CGACCGCA: -0.143
GATTTCAA: 0.128
TCTGTTAA: 0.186
CAAGTTAC: 0.0625

Set 4 — method: protein binding microarray; form: double-stranded DNA, one strand shown; sample: in vitro; concentration: not given; relative to: not given; direction: higher = stronger binding; quantity: E-score
Target: Histone acetyltransferase KAT6A, both winged helices, GST fusion (KAT6A, Homo sapiens, UniProt Q92794, residues 1-181)
Notes: 8-mer, flanks averaged, mean of 2 arrays, mostly near background
Construct (chain): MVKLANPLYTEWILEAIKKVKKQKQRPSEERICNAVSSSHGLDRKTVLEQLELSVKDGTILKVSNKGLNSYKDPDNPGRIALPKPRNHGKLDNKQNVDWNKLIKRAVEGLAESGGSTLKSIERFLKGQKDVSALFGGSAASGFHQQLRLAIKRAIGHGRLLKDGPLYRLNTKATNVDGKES
ATATACTG: -0.0884
TACACTCA: -0.172
AGGCTATC: -0.0452
GCGCCGCC: 0.371
CAAGTCAA: -0.188
AGACGTTG: -0.033
ATCGCGCC: 0.314
ACATGCTC: 0.0347
AACACGTA: -0.0104
AATACGAT: 0.0325
ATGCTAAT: -0.0943
ACTAACAA: -0.0981
CCACATGC: 0.0833
CGCAGCTA: 0.0506
ATGCGGGA: 0.282
AGAGAAAA: -0.00411
GTCATGAC: 0.145
AATATATA: 0.0351
CGCCTGTC: 0.0289
CCATCCGA: -0.16
CCTCGGTA: 0.00578
GGATACTA: 0.00883
AACCGCAA: 0.138
GTGTCCTA: 0.0717
CCAGGGCG: 0.143

Set 5 — method: DHFR PCA, deep sequencing; sample: yeast; with: (+)-ABA 0 µM; relative to: wild-type fitted maximum; direction: higher = stronger binding; quantity: relative binding score
Target: ABI1, truncated, D143A, DHFR fusion (Arabidopsis thaliana)
Notes: methotrexate growth selection, single substitutions
Parent: PYL1, truncated, DHFR fusion (Arabidopsis thaliana); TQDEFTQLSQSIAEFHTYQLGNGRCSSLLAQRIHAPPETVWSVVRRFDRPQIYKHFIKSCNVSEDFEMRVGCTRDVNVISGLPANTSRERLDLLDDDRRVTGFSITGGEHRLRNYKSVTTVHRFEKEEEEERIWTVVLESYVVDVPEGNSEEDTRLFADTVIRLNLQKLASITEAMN
E139D: -7.24%
T17N: 4.97%
T154R: -5.65%
M68Y: 2.33%
E129H: 22.1%
E109A: -1.77%
K58D: 3.5%
E38T: -1.12%
R88W: 2.48%
I133L: 22.1%
L82G: 44.7%

Set 6 — method: protein-binding microarray; form: double-stranded DNA, one strand shown; sample: in vitro; concentration: 940 nM top; notes: 60-bp whole probe; with: salmon DNA 0.4 mg/ml; relative to: random background probes; direction: higher = stronger binding; quantity: fitted relative affinity; shared flanks, not repeated: GCCTAGCAC … GTCTTGATTCGCTTGACGCTGCTG
Target: Interferon regulatory factor 5, full length, phosphomimetic (IRF5, Homo sapiens, UniProt Q13568-2, residues 1-514, S451D/S453D/S456D/S462D)
GACGGTATCGGGTATCGGGATGTGCTA: 5.38 z-score
GACGGTTTCGACTTTCGAGACGTGCTA: 6.76 z-score
TTAGGGCTCCTACTGCTTTAGTGCTAG: -0.388 z-score
GTGACTCTGAACCTTGGGCTGTGCTAG: -0.494 z-score
CTGTGTACATCTCTCTTAAAGTGCTAG: 0.433 z-score
TTAGATATCGGGGATCGATTAGTGCTA: 0.242 z-score
GACGAACTGAGTATCGAGACGTGCTAG: 1.54 z-score
TTGTATCTGGGTTCCCCCCCGTGCTAG: 0.165 z-score
TCAATTCCTGATCTCTGACTGTGCTAG: 0.31 z-score
GACGGTCTCCTTTTCCAGACGTGCTAG: 0.845 z-score
GACGGTCTCGTTATCGGGACGTGCTAG: 1.49 z-score
TTAGATATCGGGTTTTGATTAGTGCTA: 0.676 z-score
GACGGTATCTGTATCGGGACGTGCTAG: 2.31 z-score
GAGGAACTGAGTATCGAGACGTGCTAG: 1.04 z-score
TCATGTCTGTAGCTCATACTGTGCTAG: -0.458 z-score
TTAGGTTTTGGTTTCGGTTAGTGCTAG: 12.3 z-score
AGTATGTTCACTATTTAAGAGTGCTAG: -0.0996 z-score
TTAGGTTTCGATTTCGGTTAGTGCTAG: 12.5 z-score
GTCGGTTTCCTTCTCCTGACGTGCTAG: 3.81 z-score
TTAGGTCTCCTTCTCCTTTCGTGCTAG: 0.654 z-score
TTAGGTATCTACTTTCGGTTAGTGCTA: 4.48 z-score
GACGGTTTCCTTTCGCTGACGTGCTAG: 2.52 z-score
GAAAAATCTGGAACTAACAGGTGCTAG: -0.373 z-score
TTAGATTTGGGGTTTCGATTAGTGCTA: 5.96 z-score
GACGGACTGGAAACTGGGGACGTGCTA: -0.593 z-score

Further values, each from its own experiment
SEC16A (Homo sapiens, UniProt O15027)
cross-linked residues (PRRC2C (Homo sapiens, UniProt Q9Y520); cross-linking MS; cell fractions; with: DMTMM): E2098 to K1412

PhoQ, residues 284 288 289 292 302 303 SSCCRF
fold induction (PhoP, residues 12 14 15 18 19 NIMAP (Escherichia coli, UniProt P23836); Sort-seq, refers to: YFP reporter; E. coli; PhoQ-PhoP variant library, with: 10 µM Mg2+; relative to: high Mg2+ state, higher = stronger signaling): 0.604

VBP1 (Homo sapiens, UniProt P61758)
interaction screen (PFDN2 (Homo sapiens, UniProt Q9UHV9); cross-linking MS; hits only): cross-linked

HADHB (Homo sapiens, UniProt P55084)
cross-linked residues (CYGB (Homo sapiens, UniProt Q8WWM9); cross-linking MS; cell fractions; with: DSSO): K253 to K25

ADAR (Homo sapiens, UniProt P55265)
cross-linked residues (SESTD1 (Homo sapiens, UniProt Q86VW0); cross-linking MS; cell fractions; with: DSSO): K798 to K540

Some of these lines once more (set 3):
CGGCGGCA: -0.404
ATCGGCTG: -0.154
GTCATTGA: 0.197
CCCATAAA: 0.142
CTTAACTA: 0.161
ACTCATCC: -0.011
CAAACGTC: -0.0504
CCACCGCA: -0.201
AGACTGCC: -0.11
TACAACGA: 0.167
ATCAGCAG: -0.0437
ATGCGTAC: 0.208
AAGCCGAG: -0.29
ACTACGCG: -0.117
AGGAAGAC: -0.129
CAGGACTA: -0.084
